Measurements from different studies.
Every numbered part comes from another study and shows a few of its results, in no order.
Chain of UniProt Q9UIK4 (whole entry, looked up): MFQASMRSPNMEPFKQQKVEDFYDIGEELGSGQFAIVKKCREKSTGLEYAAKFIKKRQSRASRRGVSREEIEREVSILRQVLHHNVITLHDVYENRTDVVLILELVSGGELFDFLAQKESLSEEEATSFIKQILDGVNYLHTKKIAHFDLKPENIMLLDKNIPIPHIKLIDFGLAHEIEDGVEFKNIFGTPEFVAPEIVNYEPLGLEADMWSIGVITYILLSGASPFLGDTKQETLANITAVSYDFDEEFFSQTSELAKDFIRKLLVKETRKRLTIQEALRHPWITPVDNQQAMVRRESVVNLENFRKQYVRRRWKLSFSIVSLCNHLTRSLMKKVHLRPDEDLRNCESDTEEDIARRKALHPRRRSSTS
Chain of UniProt Q9Y243 (whole entry, looked up): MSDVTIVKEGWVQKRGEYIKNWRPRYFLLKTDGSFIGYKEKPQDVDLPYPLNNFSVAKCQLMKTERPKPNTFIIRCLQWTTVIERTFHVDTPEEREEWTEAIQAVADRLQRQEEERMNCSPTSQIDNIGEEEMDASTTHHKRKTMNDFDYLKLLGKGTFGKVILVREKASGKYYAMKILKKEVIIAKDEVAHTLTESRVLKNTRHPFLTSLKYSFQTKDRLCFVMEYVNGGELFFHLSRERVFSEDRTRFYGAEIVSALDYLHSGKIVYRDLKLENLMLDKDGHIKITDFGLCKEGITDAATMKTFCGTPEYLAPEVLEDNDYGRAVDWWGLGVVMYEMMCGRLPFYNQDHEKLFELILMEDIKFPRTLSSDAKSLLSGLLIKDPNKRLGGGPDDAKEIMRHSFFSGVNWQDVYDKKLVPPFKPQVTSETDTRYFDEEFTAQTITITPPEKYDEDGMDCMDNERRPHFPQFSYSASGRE
Chain of UniProt P35626 (whole entry, looked up): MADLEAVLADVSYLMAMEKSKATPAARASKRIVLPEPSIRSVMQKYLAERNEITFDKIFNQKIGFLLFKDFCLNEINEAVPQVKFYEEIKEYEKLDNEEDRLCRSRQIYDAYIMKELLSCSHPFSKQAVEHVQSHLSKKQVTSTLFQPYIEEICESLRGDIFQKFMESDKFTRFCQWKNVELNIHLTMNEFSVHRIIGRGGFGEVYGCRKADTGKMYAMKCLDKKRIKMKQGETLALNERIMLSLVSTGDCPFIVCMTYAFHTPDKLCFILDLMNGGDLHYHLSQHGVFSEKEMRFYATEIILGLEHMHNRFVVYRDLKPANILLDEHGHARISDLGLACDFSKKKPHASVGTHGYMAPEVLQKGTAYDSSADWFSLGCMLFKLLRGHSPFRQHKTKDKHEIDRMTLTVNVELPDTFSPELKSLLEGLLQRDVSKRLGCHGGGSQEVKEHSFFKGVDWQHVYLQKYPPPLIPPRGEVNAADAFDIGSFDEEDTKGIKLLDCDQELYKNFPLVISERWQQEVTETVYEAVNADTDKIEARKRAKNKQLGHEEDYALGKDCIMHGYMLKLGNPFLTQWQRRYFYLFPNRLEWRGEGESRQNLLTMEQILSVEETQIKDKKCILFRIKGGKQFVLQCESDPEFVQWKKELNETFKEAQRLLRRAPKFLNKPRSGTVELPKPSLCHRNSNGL
Chain of UniProt P36897 (whole entry, looked up): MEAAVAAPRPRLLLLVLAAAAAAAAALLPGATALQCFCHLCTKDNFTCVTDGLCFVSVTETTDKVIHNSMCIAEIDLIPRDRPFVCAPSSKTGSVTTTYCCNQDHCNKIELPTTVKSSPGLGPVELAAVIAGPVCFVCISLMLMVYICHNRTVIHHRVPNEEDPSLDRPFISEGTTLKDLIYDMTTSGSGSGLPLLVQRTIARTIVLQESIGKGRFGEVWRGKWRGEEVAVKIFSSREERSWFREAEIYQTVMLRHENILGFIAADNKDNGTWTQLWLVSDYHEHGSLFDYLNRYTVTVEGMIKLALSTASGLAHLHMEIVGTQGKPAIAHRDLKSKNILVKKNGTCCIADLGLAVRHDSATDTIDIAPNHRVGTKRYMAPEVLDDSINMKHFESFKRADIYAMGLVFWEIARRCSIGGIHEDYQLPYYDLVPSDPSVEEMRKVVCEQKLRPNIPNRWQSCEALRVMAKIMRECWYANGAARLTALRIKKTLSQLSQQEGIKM
Chain of UniProt Q9NQU5 (whole entry, looked up): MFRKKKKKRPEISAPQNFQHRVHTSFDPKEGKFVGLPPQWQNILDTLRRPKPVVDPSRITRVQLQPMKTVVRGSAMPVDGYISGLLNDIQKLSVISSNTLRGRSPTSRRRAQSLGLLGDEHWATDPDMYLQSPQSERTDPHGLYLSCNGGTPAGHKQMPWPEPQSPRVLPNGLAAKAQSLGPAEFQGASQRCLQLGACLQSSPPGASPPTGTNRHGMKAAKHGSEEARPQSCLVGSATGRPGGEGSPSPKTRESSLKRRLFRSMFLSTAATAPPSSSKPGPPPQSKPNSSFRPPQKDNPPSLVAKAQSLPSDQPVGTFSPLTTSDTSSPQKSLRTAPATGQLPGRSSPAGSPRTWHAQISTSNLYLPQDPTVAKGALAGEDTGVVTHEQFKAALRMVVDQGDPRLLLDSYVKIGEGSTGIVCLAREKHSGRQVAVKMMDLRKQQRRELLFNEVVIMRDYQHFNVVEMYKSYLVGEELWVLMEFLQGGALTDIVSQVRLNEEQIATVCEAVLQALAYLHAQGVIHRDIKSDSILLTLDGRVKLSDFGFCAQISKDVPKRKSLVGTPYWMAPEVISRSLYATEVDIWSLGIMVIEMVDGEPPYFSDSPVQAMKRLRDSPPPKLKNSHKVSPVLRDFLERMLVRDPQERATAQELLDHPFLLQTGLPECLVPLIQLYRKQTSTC
Chain of UniProt P07948 (whole entry, looked up): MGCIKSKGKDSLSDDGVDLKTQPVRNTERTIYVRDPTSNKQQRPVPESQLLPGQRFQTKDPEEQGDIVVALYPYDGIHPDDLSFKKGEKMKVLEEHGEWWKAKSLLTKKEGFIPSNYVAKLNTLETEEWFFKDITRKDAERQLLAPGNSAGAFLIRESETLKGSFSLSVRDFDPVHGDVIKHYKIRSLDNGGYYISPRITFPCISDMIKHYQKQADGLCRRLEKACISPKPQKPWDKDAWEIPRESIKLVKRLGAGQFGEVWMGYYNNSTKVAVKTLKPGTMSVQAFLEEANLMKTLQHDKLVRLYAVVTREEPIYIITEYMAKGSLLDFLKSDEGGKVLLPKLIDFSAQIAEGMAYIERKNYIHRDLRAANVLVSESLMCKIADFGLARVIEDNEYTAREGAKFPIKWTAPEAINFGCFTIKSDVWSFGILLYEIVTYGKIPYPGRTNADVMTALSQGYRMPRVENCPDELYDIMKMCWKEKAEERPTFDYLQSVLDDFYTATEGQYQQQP
Chain of UniProt Q8WXR4 (whole entry, looked up): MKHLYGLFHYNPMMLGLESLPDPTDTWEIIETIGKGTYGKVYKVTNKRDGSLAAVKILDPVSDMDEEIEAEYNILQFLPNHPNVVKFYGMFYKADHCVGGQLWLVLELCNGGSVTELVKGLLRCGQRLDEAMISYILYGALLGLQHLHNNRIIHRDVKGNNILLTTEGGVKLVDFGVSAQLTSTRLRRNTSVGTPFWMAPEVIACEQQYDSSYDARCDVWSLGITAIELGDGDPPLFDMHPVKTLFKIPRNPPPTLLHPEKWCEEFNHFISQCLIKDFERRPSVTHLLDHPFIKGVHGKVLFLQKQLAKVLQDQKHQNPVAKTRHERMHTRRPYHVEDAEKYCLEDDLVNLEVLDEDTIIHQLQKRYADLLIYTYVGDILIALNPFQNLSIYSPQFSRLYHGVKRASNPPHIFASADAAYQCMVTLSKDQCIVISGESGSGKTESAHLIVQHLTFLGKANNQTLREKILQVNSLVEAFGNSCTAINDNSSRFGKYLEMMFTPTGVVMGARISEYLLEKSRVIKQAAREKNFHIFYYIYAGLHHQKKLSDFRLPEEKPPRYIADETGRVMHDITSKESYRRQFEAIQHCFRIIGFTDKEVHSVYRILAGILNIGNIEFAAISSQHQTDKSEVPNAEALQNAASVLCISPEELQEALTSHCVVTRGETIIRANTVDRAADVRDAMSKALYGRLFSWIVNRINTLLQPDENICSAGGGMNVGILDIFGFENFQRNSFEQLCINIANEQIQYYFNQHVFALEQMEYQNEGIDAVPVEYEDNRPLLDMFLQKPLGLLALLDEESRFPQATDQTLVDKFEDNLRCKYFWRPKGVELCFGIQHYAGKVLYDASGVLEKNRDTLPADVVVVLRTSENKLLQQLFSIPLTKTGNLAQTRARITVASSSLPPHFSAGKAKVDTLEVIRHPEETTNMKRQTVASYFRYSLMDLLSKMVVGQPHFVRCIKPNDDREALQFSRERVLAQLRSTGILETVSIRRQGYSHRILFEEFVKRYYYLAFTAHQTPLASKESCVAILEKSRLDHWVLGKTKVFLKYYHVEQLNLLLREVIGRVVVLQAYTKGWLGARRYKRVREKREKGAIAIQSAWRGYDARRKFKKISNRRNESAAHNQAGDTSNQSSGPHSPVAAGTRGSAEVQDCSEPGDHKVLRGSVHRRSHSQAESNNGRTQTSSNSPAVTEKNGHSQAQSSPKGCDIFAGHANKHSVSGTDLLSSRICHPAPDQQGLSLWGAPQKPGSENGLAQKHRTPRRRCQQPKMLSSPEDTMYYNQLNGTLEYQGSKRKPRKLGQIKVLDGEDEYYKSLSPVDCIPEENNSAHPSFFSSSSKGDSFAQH

Set 1 — method: protein-binding microarray; form: double-stranded DNA, one strand shown; medium: in vitro; tested at: not given; direction: higher = stronger binding
Target: Protein C-ets-1 (ETS1, Homo sapiens, UniProt P14921, residues 1-441, full length assumed)
Notes: k-mer, scored over probes, only values ≥0.25
Residues (chain): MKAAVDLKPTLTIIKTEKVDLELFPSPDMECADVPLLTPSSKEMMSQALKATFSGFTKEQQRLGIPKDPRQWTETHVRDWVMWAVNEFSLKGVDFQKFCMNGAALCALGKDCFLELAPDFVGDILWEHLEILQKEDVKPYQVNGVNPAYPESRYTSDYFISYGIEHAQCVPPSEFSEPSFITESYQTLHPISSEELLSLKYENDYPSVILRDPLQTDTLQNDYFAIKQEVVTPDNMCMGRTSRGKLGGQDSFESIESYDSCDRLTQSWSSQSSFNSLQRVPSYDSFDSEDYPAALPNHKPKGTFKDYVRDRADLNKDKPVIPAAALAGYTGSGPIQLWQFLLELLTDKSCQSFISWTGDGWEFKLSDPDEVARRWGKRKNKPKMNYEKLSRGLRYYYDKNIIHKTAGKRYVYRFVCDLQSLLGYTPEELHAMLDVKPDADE
Oligonucleotide	E-score
CCCCGTCC	0.293
TAAGGAAA	0.322
ATCCGGAA	0.473
CCTCCGGA	0.398
ACTGGAAG	0.348
CCGGCCAC	0.3
CCACACAC	0.291
AGGATACA	0.265

Set 2 — effect on: cell-free assay; method: competition with immobilised ligand; tested at: 1 µM
SMILES: C[C@@]1(Cc2ccc(C#N)cc2)C(=O)N(c2cc(Cl)cc(Cl)c2)c2ncc(C(=O)NC3(c4nc(C5CCC5)no4)CC3)n21
target	remaining binding [%]
AKT3 (Homo sapiens, UniProt Q9Y243)	100
PAK6 (Homo sapiens, UniProt Q9NQU5)	100
PRKCH (Homo sapiens, UniProt P24723)	100
Myosin-IIIb (MYO3B, Homo sapiens, UniProt Q8WXR4)	99

Set 3 — method: RNA Bind-n-Seq; form: RNA; medium: in vitro; tested at: 20 nM; notes: 6-mer, flanks averaged, single round; added: 150 mM LiCl; reference: input library; direction: higher = stronger binding
Target: TAR DNA-binding protein 43, full length, His tag (TARDBP, Homo sapiens, UniProt Q13148, residues 1-414)
Oligonucleotide	6-mer enrichment (R)
UGGAGG	1.24
AUACGA	0.79
GAAGGG	1.2
AUGCUG	0.988
UCUAGU	0.913
GGCCCG	1.05
CUUUUC	1.08
CGUAUU	0.942

Set 4 — effect on: enzyme activity; action: inhibitor; tested at: 0.5 µM; reference: control
SMILES: COc1cc2ncnc(N3CCN(C(=O)Nc4ccc(Oc5ccccc5)cc4)CC3)c2cc1OC
target	remaining activity
DAPK2 (Homo sapiens, UniProt Q9UIK4)	95%
CHEK2 (Homo sapiens, UniProt O96017)	102%
STK39 (Homo sapiens, UniProt Q9UEW8)	83.2%
cGMP-dependent protein kinase 1, isoform beta (PRKG1, Homo sapiens, UniProt Q13976)	98.7%
DAPK1 (Homo sapiens, UniProt P53355)	97.5%
MAP3K3 (Homo sapiens, UniProt Q99759)	83.7%
TGFBR1 (Homo sapiens, UniProt P36897)	99.5%
GRK3 (Homo sapiens, UniProt P35626)	106%
STK10 (Homo sapiens, UniProt O94804)	97.9%
PRKACA (Homo sapiens, UniProt P17612)	96%
Tyrosine-protein kinase Lyn, isoform B (LYN, Homo sapiens, UniProt P07948)	102%

Repeated from above (set 3):
Oligonucleotide	6-mer enrichment (R)
CUUUUC	1.08
CGUAUU	0.942
AUGCUG	0.988
UGGAGG	1.24
AUACGA	0.79
